Measured values of several laboratories.
Every numbered part comes from another study and shows a few of its results, in no order.

Set 1 — method: RNA Bind-n-Seq; molecule type: RNA; sample: in vitro; tested at: 365 nM; reference: no-protein control; direction: higher = stronger binding
Target: RNA binding protein fox-1 homolog 2, RRM domain, GST-SBP tag (RBFOX2, Homo sapiens, UniProt O43251-10, residues 100-194)
Notes: natural RNA segment, single round, ends assumed
Oligonucleotide	RBNS enrichment (R)
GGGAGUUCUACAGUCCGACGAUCGCCGCCGCCAACGACUCCAUCCCUGUCGGUCCUGAGCCGGGCCCACCCAAUCCUGCCCCCUGCCCAGGAAGAGCUGCCUGGGCCAGUUACCCCAAGGCCUGAGGACCCUCUGGAAUUCUCGGGUGCCAA	0.529
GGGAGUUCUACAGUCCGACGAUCACUGUCCCUCCUUGAGCACCAGCCCCACCCAAGCAAGCAGACAUUUAUCUUUUGGGUCUGUCCUCUCUGUUGCCUUUUUACAGCCAACUUUUCUAGACCUGUUUUGCUUUUGGAAUUCUCGGGUGCCAA	0.514
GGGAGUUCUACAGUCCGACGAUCGCCCCUCCUGAAAGGAUGGAAGGAAACCACCUCCAUCGGUACUCCAAAGUUCUUGAAGCCCACUUGGGAGACCCGAAACCUCGGCCCCUGCCAGCCUGUCCACAUUUGUCUGGAAUUCUCGGGUGCCAA	0.456
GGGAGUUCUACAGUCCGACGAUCCAGAUGUCUAACGGGAGCUUGCUUAAGGGGAAUGUUAGCAUUGCCAAGUGCGAUGGUGUUGCCUUUCCAUGGGAUAUUGCAUUUUCUUACACUACCCGAGAUGUCCAGACUGGAAUUCUCGGGUGCCAA	0.463
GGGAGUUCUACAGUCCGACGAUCCCCCAUCUGGCAGCACAUGCCAAGUUUCAGGAGGAUUGGGGGGAGGCGGGUGCAGGCUUGAGAAGAAUCUGGGUGUGUGGGUAUGUGUGCACAUGUGCAUGUGGGUGUGUUGGAAUUCUCGGGUGCCAA	8.2
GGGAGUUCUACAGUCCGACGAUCGAUGGACCUUUCCCUCCAUGUAGCUUUUCCUCAGAGUCGAUGAGAAGUGAAUGUUGUCUUUGGUCACAAUGCCUUUAAGUGUAGUUGUAGCUCAGAACUUUUUUUUUAGUUGGAAUUCUCGGGUGCCAA	0.534
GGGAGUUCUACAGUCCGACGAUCAGCAAACUAUCUUUGAGUCAAAAAAAGUUGGAUAACUCAUCUAUAUUUGAAAUAAUGCUGUCUGAAUGGCCAACAUCCCAAGAAUGUAUUAAAAACAGCAACCCUGCCUAUGGAAUUCUCGGGUGCCAA	1.63
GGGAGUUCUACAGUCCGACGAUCAAAUGUCAUCACACUGGAAAUUGUACUAUAUGUAAAAAAAAAAAAAAGUAUAGUUUUAUAUUUGAAAUGUAUGCAAAUUAUGGCCAUAUGGCUGAUUGGAAUGUACUACUUGGAAUUCUCGGGUGCCAA	0.414
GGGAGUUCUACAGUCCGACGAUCGGACAUCCACUGCCACGCCAAACUCAACUUACCAAUACAUUACGGCCUUGAAAGGGAGCAGAGAGUGGCUGGAGAAUCAAUUCUGACACCGGCUAAAGUUGCAGCUGUUGUGGAAUUCUCGGGUGCCAA	0.411

Set 2 — method: protein binding microarray; molecule type: double-stranded DNA, one strand shown; sample: in vitro; tested at: not given; reference: not given; direction: higher = stronger binding
Target: Histone acetyltransferase KAT6A, both winged helices, GST fusion (KAT6A, Homo sapiens, UniProt Q92794, residues 1-181)
Notes: 8-mer, flanks averaged, mean of 2 arrays, mostly near background
Residues (chain): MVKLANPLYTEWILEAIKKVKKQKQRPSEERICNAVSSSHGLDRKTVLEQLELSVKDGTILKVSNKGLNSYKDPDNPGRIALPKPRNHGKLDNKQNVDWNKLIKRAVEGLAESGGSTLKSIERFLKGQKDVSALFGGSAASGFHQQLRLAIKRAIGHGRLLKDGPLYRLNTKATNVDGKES
Oligonucleotide	E-score
TAAACGAA	-0.0127
GTAGAGTA	-0.0914
AACAGTCC	-0.191
CGAACTCG	0.0106
AGTAAAAC	-0.0907
CATTCTAG	-0.176
AATAGCGT	0.178
CGCCGAAA	0.228
ACAGTCGC	0.0315
CAGGTTGC	-0.0761
ATTATGGA	-0.0853
AGCGTTTC	0.129
GTGCAACA	-0.139
GGTTTGGA	-0.162
CTATGACC	-0.0331
GGAACACC	-0.0418
AAGGGTAT	-0.114
CTTTTGTA	-0.0841
CGACTCTC	-0.0436
AATCAGGA	-0.065
GAAACCCA	-0.0391
GTGACAGA	-0.0135
CGTGAACC	0.153
CACAAGTA	-0.166
AGGATACC	-0.102

Set 3 — method: RNA Bind-n-Seq; molecule type: RNA; sample: in vitro; tested at: not given; reference: input RNA pool; direction: higher = stronger binding
Target: RING finger protein unkempt homolog, zinc fingers 1-6, GST-SBP tag (UNK, Homo sapiens, UniProt Q9C0B0, residues 30-357)
Notes: RNA with constant flanks, human and mouse sites, ends assumed
Target sequence (chain): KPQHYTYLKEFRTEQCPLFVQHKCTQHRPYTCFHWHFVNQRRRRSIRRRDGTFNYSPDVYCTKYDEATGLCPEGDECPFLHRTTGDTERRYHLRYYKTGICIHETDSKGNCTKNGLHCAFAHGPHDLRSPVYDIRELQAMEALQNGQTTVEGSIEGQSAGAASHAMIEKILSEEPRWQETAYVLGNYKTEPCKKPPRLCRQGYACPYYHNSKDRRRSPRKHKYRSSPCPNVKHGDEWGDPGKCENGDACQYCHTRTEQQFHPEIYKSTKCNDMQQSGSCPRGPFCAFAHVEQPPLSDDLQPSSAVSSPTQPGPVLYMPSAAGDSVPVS
Oligonucleotide	bound/input enrichment [ratio]
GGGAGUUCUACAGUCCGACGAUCCCAGAUGACCGGUCACAGGGAGCAAUCAUUGCUGACCGGCCAGGGCUGCCUGGCCCAGAGCAUAGCCCUUCAGAAUCCCAGCCUUCGUCGCCUUCUCCGACCCCAUCACCAUCCCCAGUCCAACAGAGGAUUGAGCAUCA	0.229
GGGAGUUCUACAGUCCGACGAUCACACUCUGACAUGAAUGAAUUAUUAUUAUUUUUAUUUUUCUUUUUUUUUUUACAUUUUGUAUAGAAACAAAUUCAUUUAAACAAACUUAUUAUUAUUAUUUUUUACAAAAUAUAUAUAUGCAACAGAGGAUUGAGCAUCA	73
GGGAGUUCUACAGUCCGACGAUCGGGCGCUCUGCAUCCAGGUGCCAUUCAUCAGAAAAUAAAAAUGUCUCCUUGAACCUAUCCCUUAGGGCCUGCUUCCUGGAAUCCAAGGGACUAGGAACUCUCUGAGUCACAGGACUCCCACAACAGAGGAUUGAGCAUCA	0.382
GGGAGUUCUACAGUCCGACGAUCAGUAGAGAACAAUGACCUCAUUUUAUUUUCUAUGUUAGUUAUUUAUUUCAAAAUUAACAUUUUAGUUGAUUUUUGUCUGAUAAGUCUAUGUUUUGCACUGCUAACUAUGAUGAGGGUUUACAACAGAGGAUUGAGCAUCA	1.32
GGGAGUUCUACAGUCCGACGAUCUUGAAAGGUAACGGGAGCCCAGUAAAUGGGAGUUCUCAGCUGGGAAACUCAAAUCCUUCACUGAGCUCAAAUAUUCCAAAUCUUCAAAAUUCAUUAAAUGGAACUUCUGCUAGCAGAAAGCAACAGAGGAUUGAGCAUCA	0.455
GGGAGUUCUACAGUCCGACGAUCUCUUUGUUUGUAACUUAUCUGUAAAAGGUUUCUCCCUACUGUCAAAAAAAUAUGCAUGUAUAGUAAUUAGGACUUCAUUCCUCCAUGUUUUCUUCCCUUAUCUUACUGUCAUUGUCCUAACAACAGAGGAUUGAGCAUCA	1.88
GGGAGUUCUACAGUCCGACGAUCUACCAUAAUCAAAAGUUUGAAAUAUCCUGUUUCUUAAAUAAUGAGAACAUUAAUCACAUUUAGCAAGCAUUUGUACAUUCAAACCUGGAUAUUAAAGUGAAAUGAUUACUUUGAAUCACUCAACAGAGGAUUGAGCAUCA	0.217
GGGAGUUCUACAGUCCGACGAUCUUCGGUGUUAUCCGGUCACUCAUGGCCUUUAGGCUGACAGGUGGCACCAAAGACUACAUUGUAGUUGGCAGUGACUCUGGUCGAAUUGUUAUUUUGGAAUACCAGCCAUCUAAGAAUAUGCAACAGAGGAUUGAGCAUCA	0.107
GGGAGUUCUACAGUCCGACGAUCAUAAUAAAAGCCUCCAGCAAAGACGCCAUCAGGCUCUUGGAUUCUGUGCCUCCCACUGCCAUUAGCCAUUUCAAGCAGUCAGCUGAGAAGCUGAUUGAGGAGAAGGGAGCUGUAGAGGCCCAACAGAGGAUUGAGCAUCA	0.428
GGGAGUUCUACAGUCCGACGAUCCUGAGUAACCGUAUGAUGGUGGUGGUGGUGGUGUCUUCCUGUCUCAACGAUACCUAUUUUCUAGUGCUGAGAUCCUGAGACAAUGAGUGGUAUGAUCCAAAUGCUUCACUUCUUCGACGUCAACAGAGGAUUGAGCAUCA	0.093
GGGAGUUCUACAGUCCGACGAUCAAACGAGCUGCAGAUGAAGUUUUAGCAGAAGCAAAGAAACCACGAAUUGAGGAUGAAGAGUGUGUGCGCCUUGAUAAAGAGAGAUUGGCUGCCCGUUUGGAGGGUCACAAAGAAGGGAUUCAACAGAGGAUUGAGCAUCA	0.376

Set 4 — method: universal PBM; molecule type: double-stranded DNA, one strand shown; sample: in vitro; tested at: not given; direction: higher = stronger binding
Target: Sal-like protein 4, full length isoform B (SALL4, Homo sapiens, UniProt Q9UJQ4-2, residues 1-616)
Notes: 8-mer, flanks averaged, mean of replicates
Oligonucleotide	E-score
CAATCTCA	0.0418
CAGAACCC	-0.148
ATTCCTTA	0.13
CATCTAAG	-0.0442
CCGAAGCC	-0.335
AGCCTTGA	-0.00426
GTGGAGGA	-0.0215
GCGTCGCC	-0.272
AACATGAG	0.143
ATTCAGCC	0.0395
AGACTCAA	-0.0133
TCGACTCA	0.0348
CCAGACGA	-0.223
ACTGTGAA	0.022
GATCTTCA	0.0661
GCGAGCCC	-0.292
ACTTAAGT	0.166
AATTACGC	0.141
CGTCTAGA	-0.0617
ATACGCCG	-0.187
